Measured values collected from several papers.
Parts stem from different laboratories: compare values within a part only.
UniProt P15056, sequence (whole entry, unmodified, looked up): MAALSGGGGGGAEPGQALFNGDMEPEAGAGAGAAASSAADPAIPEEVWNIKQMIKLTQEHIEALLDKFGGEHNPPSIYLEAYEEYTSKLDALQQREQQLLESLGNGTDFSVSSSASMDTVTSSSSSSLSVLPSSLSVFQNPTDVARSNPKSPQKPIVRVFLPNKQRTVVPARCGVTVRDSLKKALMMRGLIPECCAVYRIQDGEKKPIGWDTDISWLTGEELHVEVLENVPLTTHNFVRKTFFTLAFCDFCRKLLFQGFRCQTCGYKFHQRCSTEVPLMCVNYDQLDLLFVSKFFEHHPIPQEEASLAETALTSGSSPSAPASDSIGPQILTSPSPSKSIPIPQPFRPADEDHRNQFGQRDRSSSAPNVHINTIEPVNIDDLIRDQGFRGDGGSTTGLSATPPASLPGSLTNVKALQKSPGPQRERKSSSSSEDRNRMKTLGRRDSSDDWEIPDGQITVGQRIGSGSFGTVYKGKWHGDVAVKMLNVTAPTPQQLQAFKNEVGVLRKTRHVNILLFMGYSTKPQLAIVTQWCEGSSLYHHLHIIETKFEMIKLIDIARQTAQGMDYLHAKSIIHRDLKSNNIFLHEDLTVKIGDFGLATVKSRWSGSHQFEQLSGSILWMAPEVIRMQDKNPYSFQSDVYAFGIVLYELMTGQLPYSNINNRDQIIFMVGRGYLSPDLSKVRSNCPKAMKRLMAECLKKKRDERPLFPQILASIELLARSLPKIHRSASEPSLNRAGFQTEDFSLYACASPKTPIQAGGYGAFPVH
UniProt Q8IVW4, sequence (whole entry, looked up): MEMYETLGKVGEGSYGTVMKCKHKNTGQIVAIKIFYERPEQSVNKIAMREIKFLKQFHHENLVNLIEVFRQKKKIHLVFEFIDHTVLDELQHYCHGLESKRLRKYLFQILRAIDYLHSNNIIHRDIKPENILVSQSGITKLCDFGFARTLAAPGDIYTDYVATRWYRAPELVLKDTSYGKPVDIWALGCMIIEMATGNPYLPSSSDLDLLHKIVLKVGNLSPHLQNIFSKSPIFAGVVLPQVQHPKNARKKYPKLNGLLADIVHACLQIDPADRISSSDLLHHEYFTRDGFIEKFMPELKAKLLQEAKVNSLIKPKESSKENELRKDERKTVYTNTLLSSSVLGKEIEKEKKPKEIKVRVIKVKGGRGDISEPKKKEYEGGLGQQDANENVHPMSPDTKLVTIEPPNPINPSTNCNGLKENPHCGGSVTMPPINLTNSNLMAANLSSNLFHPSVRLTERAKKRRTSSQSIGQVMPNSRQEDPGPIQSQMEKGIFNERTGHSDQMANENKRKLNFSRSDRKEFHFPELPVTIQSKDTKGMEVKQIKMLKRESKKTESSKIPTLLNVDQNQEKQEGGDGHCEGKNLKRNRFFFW
UniProt O14976, sequence (whole entry, looked up): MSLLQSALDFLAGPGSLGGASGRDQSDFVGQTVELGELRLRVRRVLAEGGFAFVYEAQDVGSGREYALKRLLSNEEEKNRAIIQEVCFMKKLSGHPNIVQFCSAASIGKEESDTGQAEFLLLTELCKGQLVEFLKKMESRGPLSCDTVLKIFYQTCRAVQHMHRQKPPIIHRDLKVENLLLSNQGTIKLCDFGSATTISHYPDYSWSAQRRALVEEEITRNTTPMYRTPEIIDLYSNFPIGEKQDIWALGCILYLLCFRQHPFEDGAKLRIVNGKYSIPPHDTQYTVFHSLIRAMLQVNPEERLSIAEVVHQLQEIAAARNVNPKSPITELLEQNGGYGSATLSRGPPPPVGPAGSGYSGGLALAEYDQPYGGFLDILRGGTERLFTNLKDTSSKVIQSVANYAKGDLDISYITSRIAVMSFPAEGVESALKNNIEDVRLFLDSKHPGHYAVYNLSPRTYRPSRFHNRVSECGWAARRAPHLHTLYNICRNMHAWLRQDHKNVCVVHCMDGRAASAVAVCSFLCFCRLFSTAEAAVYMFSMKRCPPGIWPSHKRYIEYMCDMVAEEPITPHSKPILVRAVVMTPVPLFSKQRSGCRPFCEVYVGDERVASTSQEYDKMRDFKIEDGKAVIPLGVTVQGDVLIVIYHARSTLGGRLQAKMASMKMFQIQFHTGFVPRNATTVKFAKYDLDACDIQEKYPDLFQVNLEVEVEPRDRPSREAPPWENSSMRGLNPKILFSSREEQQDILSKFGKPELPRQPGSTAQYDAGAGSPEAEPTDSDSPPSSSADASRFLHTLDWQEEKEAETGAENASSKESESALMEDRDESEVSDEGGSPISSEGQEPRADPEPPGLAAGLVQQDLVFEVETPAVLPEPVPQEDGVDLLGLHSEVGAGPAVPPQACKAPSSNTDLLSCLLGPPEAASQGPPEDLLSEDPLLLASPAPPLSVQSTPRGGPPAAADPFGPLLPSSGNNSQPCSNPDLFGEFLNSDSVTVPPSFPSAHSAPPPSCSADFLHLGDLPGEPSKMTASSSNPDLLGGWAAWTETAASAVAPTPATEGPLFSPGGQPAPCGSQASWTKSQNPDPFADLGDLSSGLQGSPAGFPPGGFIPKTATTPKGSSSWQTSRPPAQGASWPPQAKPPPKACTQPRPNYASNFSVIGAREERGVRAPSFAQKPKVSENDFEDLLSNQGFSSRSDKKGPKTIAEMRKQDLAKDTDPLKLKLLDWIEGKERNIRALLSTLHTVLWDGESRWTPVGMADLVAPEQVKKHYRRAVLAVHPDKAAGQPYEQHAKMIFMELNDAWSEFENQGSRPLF
UniProt Q9HAZ1, sequence (whole entry, looked up): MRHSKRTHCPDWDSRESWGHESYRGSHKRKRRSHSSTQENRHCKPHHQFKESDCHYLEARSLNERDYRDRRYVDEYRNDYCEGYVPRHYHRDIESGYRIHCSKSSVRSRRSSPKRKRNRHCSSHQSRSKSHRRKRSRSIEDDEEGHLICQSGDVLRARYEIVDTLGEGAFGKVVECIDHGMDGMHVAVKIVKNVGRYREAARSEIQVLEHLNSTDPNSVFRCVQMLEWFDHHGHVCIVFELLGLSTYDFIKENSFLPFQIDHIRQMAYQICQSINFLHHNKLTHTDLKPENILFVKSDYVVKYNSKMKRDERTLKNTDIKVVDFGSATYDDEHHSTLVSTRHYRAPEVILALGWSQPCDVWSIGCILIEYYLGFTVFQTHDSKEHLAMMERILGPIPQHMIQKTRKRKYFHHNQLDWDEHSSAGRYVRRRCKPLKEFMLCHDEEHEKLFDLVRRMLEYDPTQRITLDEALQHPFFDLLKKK
UniProt Q96SB4, sequence (whole entry, looked up): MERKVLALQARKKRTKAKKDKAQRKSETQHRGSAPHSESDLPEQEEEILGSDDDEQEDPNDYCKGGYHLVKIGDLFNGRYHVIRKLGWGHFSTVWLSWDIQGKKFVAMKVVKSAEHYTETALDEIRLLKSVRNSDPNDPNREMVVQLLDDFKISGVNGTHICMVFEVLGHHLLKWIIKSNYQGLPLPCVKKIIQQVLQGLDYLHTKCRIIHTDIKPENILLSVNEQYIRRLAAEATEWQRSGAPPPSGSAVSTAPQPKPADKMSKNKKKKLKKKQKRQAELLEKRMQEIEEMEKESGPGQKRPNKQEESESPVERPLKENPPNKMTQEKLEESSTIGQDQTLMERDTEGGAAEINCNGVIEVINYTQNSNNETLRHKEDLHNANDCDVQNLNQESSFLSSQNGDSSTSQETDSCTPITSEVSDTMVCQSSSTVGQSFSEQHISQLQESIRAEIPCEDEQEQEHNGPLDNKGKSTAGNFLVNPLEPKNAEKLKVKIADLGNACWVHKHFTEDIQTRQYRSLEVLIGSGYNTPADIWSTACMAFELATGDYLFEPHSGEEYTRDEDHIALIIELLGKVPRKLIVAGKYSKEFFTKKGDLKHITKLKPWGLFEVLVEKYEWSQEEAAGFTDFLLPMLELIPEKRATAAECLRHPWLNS
UniProt P78368, sequence (whole entry, looked up): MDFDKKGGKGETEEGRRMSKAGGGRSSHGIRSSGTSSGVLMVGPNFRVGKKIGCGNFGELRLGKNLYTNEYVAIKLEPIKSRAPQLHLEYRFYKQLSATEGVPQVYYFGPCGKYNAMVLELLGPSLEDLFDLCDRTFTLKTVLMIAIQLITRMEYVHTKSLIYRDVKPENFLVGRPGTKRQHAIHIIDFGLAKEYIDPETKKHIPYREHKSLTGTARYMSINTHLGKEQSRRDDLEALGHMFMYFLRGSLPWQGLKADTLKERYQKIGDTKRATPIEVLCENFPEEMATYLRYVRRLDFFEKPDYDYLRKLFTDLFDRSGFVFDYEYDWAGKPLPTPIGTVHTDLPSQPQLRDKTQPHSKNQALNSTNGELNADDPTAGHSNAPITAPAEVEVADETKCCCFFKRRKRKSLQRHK

Study 1 — Structure (SMILES): O=c1nc(-c2ccccn2)sc2ccccc12; technique: competition with immobilised ligand; concentration: 1 µM
target | observed | remaining binding [%]
BRAF (Homo sapiens, UniProt P15056) | cell-free assay | 100
PAK5 (Homo sapiens, UniProt Q9P286) | cell-free assay | 87
ALK (Homo sapiens, UniProt Q9UM73) | cell-free assay | 84
RIPK4 (Homo sapiens, UniProt P57078) | binding | 84
CDKL3 (Homo sapiens, UniProt Q8IVW4) | binding | 88
CSNK2A1 (Homo sapiens, UniProt P68400) | cell-free assay | 68
CLK4 (Homo sapiens, UniProt Q9HAZ1) | binding | 90
BRAF (Homo sapiens, UniProt P15056, V600E) | cell-free assay | 100
PLK4 (Homo sapiens, UniProt O00444) | binding | 80
SRPK1 (Homo sapiens, UniProt Q96SB4) | binding | 83
MUSK (Homo sapiens, UniProt O15146) | binding | 100
Tyrosine-protein kinase ABL1, phosphorylated (ABL1, Homo sapiens, UniProt P00519, Y253F) | binding | 83
CSNK1G2 (Homo sapiens, UniProt P78368) | cell-free assay | 74
PRKACB (Homo sapiens, UniProt P22694) | cell-free assay | 92
PIKFYVE (Homo sapiens, UniProt Q9Y2I7) | binding | 100
GAK (Homo sapiens, UniProt O14976) | binding | 97

Study 2 — technique: logD(dd/w) and ALogP; notes: JT method
SMILES | lipophilic permeability efficiency
CC(C)C[C@@H]1NC(=O)[C@H](C)NC(=O)[C@H](C)NC(=O)[C@H](CCC(=O)N2CCCC2)NC(=O)[C@H](CC(C)C)NC(=O)[C@H](CC(C)C)NC(=O)[C@H](CC(C)C)NC1=O | 1.82
CC(C)C[C@@H]1NC(=O)[C@H](C(C)C)NC(=O)[C@H](C)NC(=O)[C@@H](CC(C)C)NC(=O)[C@H](C(C)C)NC(=O)[C@H](CC(C)C)NC(=O)[C@@H](CC(C)C)NC1=O | 2.43
CC(C)C[C@@H]1NC(=O)[C@H](CC(C)C)NC(=O)[C@@H](CC(C)C)NC(=O)[C@H](CC(C)C)NC(=O)[C@@H](CCC(=O)N2CCCC2)NC(=O)[C@H](Cc2cscn2)NC(=O)[C@H](C)NC1=O | 2.09

Study 3 — action: inhibitor; concentration: 10 µM; reference: control
Target: Diamine acetyltransferase 1 (Homo sapiens, UniProt P21673)
Target sequence (P21673 1-171): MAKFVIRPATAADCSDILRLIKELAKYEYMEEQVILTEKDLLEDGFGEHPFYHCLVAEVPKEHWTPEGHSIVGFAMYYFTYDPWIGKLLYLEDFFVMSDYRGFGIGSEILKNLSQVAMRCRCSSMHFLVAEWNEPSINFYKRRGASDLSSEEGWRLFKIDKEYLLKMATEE
Structure (SMILES) | remaining activity [%]
C[C@@H]1[C@H]2[C@H](O[C@@H]3O[C@H](CO)[C@@H](O)[C@H](O)[C@H]3O)OC=C(C(=O)O)[C@H]2C[C@@H]1O | 101
CCOC(=O)c1ccc(O)cc1 | 92
CC(C)[C@H](N)C(=O)O | 91.3
CC(C)(O)[C@@H]1CC[C@](C)([C@H]2[C@@H](O)C[C@@]3(C)[C@@H]4C[C@H](O)[C@H]5C(C)(C)[C@@H](O[C@@H]6OC[C@@H](O)[C@H](O)[C@H]6O[C@@H]6O[C@H](CO)[C@@H](O)[C@H](O)[C@H]6O)CC[C@@]56C[C@@]46CC[C@]23C)O1 | 102
CCOC(=O)c1cc(O)c(O)c(O)c1 | 97.5
COc1ccc(O)cc1 | 84.3

Study 4 — organism: Sarcocystis neurona; observed: parasite growth; concentration: 10 µM; time: 96 h; reference: untreated
Structure (SMILES) | log2 fold change
OCc1cc(C(O)CNCCCCCCOCCCCc2ccccc2)ccc1O (stereo not drawn) | -0.45
CN1CCN(C2=Nc3cc(Cl)ccc3Nc3ccccc32)CC1 | 0.36
O=C(O)COCCN1CCN(C(c2ccccc2)c2ccc(Cl)cc2)CC1 (stereo not drawn) | -0.44
C[N+]1(C)CCC(OC(=O)C(O)(c2ccccc2)C2CCCC2)C1 (stereo not drawn) | 0.43

Study 5 — observed: enzyme activity; action: inhibitor; concentration: 10 µM
Target: Calcium/calmodulin-dependent protein kinase type II subunit alpha (CAMK2A, Homo sapiens, UniProt Q9UQM7)
UniProt Q9UQM7, sequence (whole entry, looked up): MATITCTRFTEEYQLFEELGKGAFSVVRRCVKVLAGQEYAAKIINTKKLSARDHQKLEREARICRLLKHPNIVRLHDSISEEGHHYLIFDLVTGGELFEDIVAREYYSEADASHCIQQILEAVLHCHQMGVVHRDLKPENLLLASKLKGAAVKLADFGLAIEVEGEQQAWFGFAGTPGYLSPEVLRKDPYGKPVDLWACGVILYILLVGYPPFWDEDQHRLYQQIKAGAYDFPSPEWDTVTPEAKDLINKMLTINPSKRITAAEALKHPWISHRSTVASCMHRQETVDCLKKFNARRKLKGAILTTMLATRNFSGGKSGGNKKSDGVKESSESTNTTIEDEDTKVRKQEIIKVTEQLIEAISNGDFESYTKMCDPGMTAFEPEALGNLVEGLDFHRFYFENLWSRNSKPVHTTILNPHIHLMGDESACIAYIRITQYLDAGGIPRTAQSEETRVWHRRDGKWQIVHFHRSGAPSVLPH
SMILES | inhibition [%]
Clc1ccc(Cn2c(CN3CCCC3)nc3ccccc32)cc1 | -12
O=C(O)CCc1ccccc1 | 27
OC[C@H]1OC[C@H](O)[C@@H](O)[C@@H]1O | -7
N#Cc1ccc(C(c2ccc(C#N)cc2)n2cncn2)cc1 | -6
